Measured values from different studies.
Parts stem from different laboratories: compare values within a part only.
Sequence of UniProt P50750 (whole entry, looked up): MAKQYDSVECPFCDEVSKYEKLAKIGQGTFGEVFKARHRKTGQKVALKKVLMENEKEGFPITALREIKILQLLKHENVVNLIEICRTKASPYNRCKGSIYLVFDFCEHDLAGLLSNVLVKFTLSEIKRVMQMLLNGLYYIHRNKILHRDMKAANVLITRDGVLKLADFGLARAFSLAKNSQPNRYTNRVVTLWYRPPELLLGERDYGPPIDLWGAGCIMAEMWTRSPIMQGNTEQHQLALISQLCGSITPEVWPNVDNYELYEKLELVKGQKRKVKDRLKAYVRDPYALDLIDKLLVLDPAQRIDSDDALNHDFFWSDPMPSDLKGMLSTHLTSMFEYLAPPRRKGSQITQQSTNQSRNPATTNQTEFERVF
Sequence of UniProt Q13523 (whole entry, looked up): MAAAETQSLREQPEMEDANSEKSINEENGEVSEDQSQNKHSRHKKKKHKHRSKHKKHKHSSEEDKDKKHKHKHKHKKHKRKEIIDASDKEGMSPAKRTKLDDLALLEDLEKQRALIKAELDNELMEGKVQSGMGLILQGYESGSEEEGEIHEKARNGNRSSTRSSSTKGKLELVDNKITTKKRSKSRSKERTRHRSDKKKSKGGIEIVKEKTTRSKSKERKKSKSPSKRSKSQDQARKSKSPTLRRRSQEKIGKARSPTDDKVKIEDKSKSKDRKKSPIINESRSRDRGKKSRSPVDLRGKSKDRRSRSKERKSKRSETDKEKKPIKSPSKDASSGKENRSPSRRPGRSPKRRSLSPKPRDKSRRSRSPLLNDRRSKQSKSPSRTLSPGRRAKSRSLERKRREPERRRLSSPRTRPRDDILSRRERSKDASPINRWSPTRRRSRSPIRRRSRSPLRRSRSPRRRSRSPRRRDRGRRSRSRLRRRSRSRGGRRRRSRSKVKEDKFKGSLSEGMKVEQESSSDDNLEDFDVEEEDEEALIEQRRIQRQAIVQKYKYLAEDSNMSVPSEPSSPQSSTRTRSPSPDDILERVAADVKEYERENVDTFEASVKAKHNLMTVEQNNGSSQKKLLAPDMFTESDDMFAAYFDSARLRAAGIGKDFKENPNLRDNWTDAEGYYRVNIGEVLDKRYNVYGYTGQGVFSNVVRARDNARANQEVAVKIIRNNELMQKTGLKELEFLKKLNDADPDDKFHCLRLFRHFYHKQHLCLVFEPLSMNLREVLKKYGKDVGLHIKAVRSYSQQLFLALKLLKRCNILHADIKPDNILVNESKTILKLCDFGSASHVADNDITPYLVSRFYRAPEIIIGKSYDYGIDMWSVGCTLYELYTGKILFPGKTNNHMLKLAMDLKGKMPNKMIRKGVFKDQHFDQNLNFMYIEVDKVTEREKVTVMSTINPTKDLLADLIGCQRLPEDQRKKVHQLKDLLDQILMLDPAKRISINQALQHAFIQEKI
Sequence of UniProt Q9UIK4 (whole entry, looked up): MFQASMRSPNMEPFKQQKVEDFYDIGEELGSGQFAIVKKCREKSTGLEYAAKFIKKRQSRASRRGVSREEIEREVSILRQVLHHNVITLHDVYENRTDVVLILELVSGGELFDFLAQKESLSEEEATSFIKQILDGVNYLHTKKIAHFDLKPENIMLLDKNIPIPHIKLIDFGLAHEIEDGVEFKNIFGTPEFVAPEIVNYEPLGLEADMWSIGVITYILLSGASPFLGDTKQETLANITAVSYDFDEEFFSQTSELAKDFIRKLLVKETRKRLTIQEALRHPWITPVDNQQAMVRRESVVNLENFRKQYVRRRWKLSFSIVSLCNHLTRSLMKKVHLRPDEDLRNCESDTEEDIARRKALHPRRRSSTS
Sequence of UniProt Q05397 (whole entry, looked up): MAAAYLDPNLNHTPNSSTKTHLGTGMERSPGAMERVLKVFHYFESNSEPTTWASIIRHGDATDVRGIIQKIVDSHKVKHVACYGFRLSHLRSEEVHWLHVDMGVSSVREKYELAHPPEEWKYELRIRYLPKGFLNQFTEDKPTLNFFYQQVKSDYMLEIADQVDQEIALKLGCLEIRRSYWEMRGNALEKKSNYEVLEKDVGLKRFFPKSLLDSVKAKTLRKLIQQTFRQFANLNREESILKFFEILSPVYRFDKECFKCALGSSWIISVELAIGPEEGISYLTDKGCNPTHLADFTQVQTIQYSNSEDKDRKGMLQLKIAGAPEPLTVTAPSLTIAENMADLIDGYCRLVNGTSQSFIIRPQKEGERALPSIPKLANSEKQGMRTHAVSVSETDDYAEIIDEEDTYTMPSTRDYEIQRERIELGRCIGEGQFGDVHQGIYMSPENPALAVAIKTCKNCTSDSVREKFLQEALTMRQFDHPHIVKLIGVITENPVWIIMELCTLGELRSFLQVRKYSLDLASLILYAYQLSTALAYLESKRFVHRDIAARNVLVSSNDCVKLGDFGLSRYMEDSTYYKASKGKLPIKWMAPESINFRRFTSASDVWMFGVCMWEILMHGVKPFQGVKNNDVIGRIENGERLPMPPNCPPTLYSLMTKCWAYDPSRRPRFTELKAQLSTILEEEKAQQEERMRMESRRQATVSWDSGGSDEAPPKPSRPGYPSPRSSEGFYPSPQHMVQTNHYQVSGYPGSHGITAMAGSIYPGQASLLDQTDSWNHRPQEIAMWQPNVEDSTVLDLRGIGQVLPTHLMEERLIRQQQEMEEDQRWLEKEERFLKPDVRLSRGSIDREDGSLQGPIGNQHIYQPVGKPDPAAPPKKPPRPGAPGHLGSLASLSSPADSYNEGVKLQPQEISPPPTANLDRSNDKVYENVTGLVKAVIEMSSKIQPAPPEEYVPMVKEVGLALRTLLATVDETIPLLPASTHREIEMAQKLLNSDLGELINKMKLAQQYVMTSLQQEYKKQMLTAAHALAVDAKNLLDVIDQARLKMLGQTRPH
Sequence of UniProt Q13882 (whole entry, looked up): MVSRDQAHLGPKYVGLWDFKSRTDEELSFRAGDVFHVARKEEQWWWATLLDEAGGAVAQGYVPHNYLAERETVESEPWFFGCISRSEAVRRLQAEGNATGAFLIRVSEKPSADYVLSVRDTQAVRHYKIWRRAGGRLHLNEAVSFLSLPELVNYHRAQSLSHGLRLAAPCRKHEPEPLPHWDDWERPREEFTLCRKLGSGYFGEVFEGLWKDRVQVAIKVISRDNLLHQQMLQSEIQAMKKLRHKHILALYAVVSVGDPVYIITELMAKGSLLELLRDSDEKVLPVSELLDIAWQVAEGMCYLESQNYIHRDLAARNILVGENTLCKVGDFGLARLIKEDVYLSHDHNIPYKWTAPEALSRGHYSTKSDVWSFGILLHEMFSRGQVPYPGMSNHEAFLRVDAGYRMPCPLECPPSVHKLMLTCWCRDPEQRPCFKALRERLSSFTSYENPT
Sequence of UniProt P42336 (whole entry, unmodified, looked up): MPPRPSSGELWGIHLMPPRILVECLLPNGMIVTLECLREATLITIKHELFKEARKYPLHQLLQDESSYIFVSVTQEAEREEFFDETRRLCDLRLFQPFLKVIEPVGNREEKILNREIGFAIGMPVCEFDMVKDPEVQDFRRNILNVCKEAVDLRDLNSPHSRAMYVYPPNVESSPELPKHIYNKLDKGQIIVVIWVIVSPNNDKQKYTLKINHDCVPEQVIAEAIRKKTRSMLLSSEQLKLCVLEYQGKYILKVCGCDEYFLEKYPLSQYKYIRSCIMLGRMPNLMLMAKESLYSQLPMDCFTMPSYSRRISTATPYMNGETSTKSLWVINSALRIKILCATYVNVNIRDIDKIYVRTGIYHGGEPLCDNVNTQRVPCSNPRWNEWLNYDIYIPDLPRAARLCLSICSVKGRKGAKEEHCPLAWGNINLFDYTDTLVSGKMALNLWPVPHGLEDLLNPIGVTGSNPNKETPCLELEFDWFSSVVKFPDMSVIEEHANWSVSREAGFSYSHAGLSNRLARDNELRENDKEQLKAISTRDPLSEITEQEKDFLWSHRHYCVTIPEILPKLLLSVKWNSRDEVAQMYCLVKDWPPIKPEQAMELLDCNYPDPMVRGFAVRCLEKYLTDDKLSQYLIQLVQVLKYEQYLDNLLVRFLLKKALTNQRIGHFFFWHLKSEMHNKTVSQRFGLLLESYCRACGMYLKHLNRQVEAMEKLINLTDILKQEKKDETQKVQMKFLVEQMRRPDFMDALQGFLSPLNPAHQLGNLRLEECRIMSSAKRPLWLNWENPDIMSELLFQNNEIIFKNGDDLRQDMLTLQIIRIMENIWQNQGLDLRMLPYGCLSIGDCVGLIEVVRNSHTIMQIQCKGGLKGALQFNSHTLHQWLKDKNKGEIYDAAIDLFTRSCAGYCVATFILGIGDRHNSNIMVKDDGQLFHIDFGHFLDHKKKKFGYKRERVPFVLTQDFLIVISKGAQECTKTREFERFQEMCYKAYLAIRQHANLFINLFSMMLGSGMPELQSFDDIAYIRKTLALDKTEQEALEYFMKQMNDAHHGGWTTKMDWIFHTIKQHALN
Sequence of UniProt O94768 (whole entry, looked up): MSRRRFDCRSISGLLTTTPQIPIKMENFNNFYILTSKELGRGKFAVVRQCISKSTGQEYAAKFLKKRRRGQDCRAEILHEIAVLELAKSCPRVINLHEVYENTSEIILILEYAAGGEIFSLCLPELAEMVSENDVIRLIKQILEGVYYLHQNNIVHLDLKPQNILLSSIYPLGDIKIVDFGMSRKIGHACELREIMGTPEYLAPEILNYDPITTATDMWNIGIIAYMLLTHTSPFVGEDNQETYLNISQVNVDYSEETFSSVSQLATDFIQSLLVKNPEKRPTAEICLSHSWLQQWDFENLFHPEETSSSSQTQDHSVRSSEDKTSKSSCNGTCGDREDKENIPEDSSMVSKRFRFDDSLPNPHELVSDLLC

Sample 1
Cell line: mouse MPNST tumor cells
Method: high-content nuclear imaging
Refers to: cell number
Tested at: 10 µM
Time: 12 h
Notes: mean of 2 replicates
Relative to: plate mean
Reading: higher = more cells
Compound	nuclei count [z-score]
Cc1nnsc1C(=O)Nc1ccc(-n2nc(C(F)(F)F)cc2C(F)(F)F)cc1	1.07
COC(=O)C1=C(C)NC(C)=C(C(=O)OCCSc2ccccc2)C1C (stereo not drawn)	3.4
CC1=C(C)C(=O)C(C(C)(C)CC(=O)N(CCCCSC[C@H]2O[C@@H](n3cnc4c(N)ncnc43)[C@H](O)[C@@H]2O)Cc2cccc(-c3ccc(Cl)cc3)c2)=C(C)C1=O	1.1
CC[C@H]1OC(=O)[C@H](C)[C@@H](O[C@H]2C[C@@](C)(OC)[C@@H](O)[C@H](C)O2)[C@H](C)[C@@H](O[C@@H]2O[C@H](C)C[C@H](N(C)C)[C@H]2O)[C@](C)(O)C[C@@H](C)[C@@H]2N[C@@H](COCCOC)O[C@H]([C@H]2C)[C@]1(C)O	1.77

Sample 2
Cell line: Huh-7
Tested at: 10 µM
Time: 24 h
SMILES	viability
CC1=C(/C=C/C(C)=C/C=C/C(C)=C/C(=O)O)C(C)(C)CCC1	97.1%
COC(=O)Nc1nc2ccc(C(=O)c3ccccc3)cc2[nH]1	64.1%
C1CNCCN1	101%

Sample 3
Observed: AlphaScreen signal
Method: AlphaScreen counter screen
Matrix: His6 peptide without bromodomain
Tested at: 50 µM
Notes: assay interference check
Compound	inhibition
O=C1NC(=O)C(=Cc2ccc(-c3ccc(Cl)c(Cl)c3)o2)S1	3.45%
Nc1[nH]nc2nnc(-c3c(-c4ccccc4)nn4ccccc34)cc12	18.9%
COc1cc2nccc(Oc3ccc(NC(=O)C4(C(=O)Nc5ccc(F)cc5)CC4)cc3)c2cc1OC	30.6%
COc1ccc(Nc2nc(N)c(C(=O)c3ccc(Cl)cc3)s2)cc1	47.9%

Sample 4
Host: mouse
Matrix: microsomes or S9
Tested at: 2 µM
Time: 0.5 h
Compound	remaining compound
CC(C)c1c(C(O)c2ccccc2)[nH]c(=O)[nH]c1=O (stereo not drawn)	64.7%
CCOCCCn1nnc2c(O)nc(C(=O)NCc3cccc(Cl)c3)nc21	29.6%
CCn1c(C(=O)N(C)c2cc(C)ccc2OC)cc2c(=O)oc3ccccc3c21	1.53%
CN1CCCC2(CCN(C3CCN(c4ccc(F)c(F)c4)CC3)C2)C1=O (stereo not drawn)	61.1%

Sample 5
Cell line: A-375
Tested at: 100 µM
Time: 36 h
Compound	viability [%]
O=C(Nc1ncc([N+](=O)[O-])s1)c1ccccc1O	31.1
CCCc1cc(=O)[nH]c(=S)[nH]1	108
Cc1cn([C@H]2O[C@@H](CO)[C@H](O)[C@H]2F)c(=O)[nH]c1=O	102
NC(=O)c1ncn([C@@H]2O[C@H](CO)[C@@H](O)[C@H]2O)c1O	108

Sample 6
Structure (SMILES): COc1ccc2cc(OCC3(C(=O)O)CN(C(=O)c4ccc(F)cc4)C3)ccc2c1
Observed: cell-free assay
Method: competition with immobilised ligand
Tested at: 1 µM
target	remaining binding [%]
PRPF4B (Homo sapiens, UniProt Q13523)	100
PTK6 (Homo sapiens, UniProt Q13882)	99
MAP4K1 (Homo sapiens, UniProt Q92918)	95
PIK3CA (Homo sapiens, UniProt P42336, E545A)	100
MERTK (Homo sapiens, UniProt Q12866)	80
PIK3CB (Homo sapiens, UniProt P42338)	100
EPHA2 (Homo sapiens, UniProt P29317)	100
PTK2 (Homo sapiens, UniProt Q05397)	100
SYK (Homo sapiens, UniProt P43405)	64
CDK9 (Homo sapiens, UniProt P50750)	100
STK17B (Homo sapiens, UniProt O94768)	100
BUB1 (Homo sapiens, UniProt O43683)	100
DAPK2 (Homo sapiens, UniProt Q9UIK4)	98
LRRK2 (Homo sapiens, UniProt Q5S007, G2019S)	84
Tyrosine-protein kinase JAK1, JH2 (JAK1, Homo sapiens, UniProt P23458)	96
MAPK4 (Homo sapiens, UniProt P31152)	100
SRPK3 (Homo sapiens, UniProt Q9UPE1)	100
